Values quoted from earlier work, collected from citations in different studies.
Lines come from different studies, so protocols differ. Numbers after ± are the reported error.

| SMILES | target | test | test system | conditions | inhibition |
| --- | --- | --- | --- | --- | --- |
| CNCCNC(=O)CN1C(=O)Cc2c([nH]c3ccc(Br)cc23)-c2ccc(Cl)cc21 | Trypanothione synthetase (Trypanosoma cruzi, UniProt Q9GT49) | enzyme activity |  | 30 µM | 40 to 60% |
| CCC1=C(O)c2c(oc(-c3ccc4ccccc4c3)cc2=O)C(CC)(CC)C1=O | Tubulin alpha-1B chain/TUBB2B (Bos taurus, UniProt P81947+Q6B856) |  |  | concentration not given | 29% |
| COc1ccc(Nc2nn3c(N)c(C#N)c(-c4ccccc4OC)nc3c2C(N)=O)cc1 | proteinase | enzyme activity |  | concentration not given | 26.42 ± 0.06% |
| Cc1ccc(-c2nc3ccc(NC(=O)CCl)cc3[nH]2)cc1 | KDR (Homo sapiens, UniProt P35968) | inhibitor |  | concentration not given | 33.1% |
| CCOC(=O)C(CC)NC(=O)CN1C(=O)S/C(=C\c2ccc(C)cc2)C1=O (stereo not drawn) | α-glucosidase | enzyme activity |  | 100 to 200 µM | inactive |
| CC(=N)NCc1cccc(CN)c1 | Nos1 (Rattus norvegicus, UniProt P29476) | NMDA-evoked cGMP accumulation |  | 1 µM | 80 to 90% |
| CCC(NC(=O)CN1C(=O)N/C(=C\c2ccc(C)cc2)C1=O)C(=O)OC (stereo not drawn) | α-glucosidase | enzyme activity |  | 200 µM | 39.3 ± 1.01% |
| CCCCC#Cc1nc(N)c2ncn([C@@H]3SC[C@@H](O)[C@H]3O)c2n1 | ADORA1 (Homo sapiens, UniProt P30542) |  |  | 10 µM | 39 ± 10% |
| CCOC(=O)C(CC)NC(=O)CN1C(=O)S/C(=C\c2ccc([N+](=O)[O-])cc2)C1=O (stereo not drawn) | α-glucosidase | enzyme activity |  | 100 to 200 µM | inactive |
| C[C@@H]1O[C@@H](Oc2c(-c3cc(O)c(O)c(O)c3)oc3cc(O)cc(O)c3c2=O)[C@H](O[C@@H]2O[C@H](COC(=O)/C=C/c3ccc(O)c(O)c3)[C@@H](O)[C@H](O)[C@H]2O)[C@H](O)[C@H]1O | Sucrase-isomaltase, intestinal, C-terminal sucrase domain (SI, Homo sapiens, UniProt P14410) |  |  | concentration not given | inhibited |
| CCOC(=O)C(NC(=O)CN1C(=O)N/C(=C\c2ccc3c(c2)OCO3)C1=O)C(C)C (stereo not drawn) | α-glucosidase | enzyme activity |  | 200 µM | 57.4 ± 2.79% |
| CC(C)(C)CCN1C[C@@H]2[C@@H](CNC(=O)c3cc(Cl)cc(Cl)c3)[C@@H]2C1.Cl | Cav1.4 channel | calcium current | cone photoreceptors | 5 µM, not significant | 5 to 10% |

Excerpt of the above:
| SMILES | target | test | test system | conditions | inhibition |
| --- | --- | --- | --- | --- | --- |
| Cc1ccc(-c2nc3ccc(NC(=O)CCl)cc3[nH]2)cc1 | KDR (Homo sapiens, UniProt P35968) | inhibitor |  | concentration not given | 33.1% |
| CC(=N)NCc1cccc(CN)c1 | Nos1 (Rattus norvegicus, UniProt P29476) | NMDA-evoked cGMP accumulation |  | 1 µM | 80 to 90% |
